Published values collected from several papers.
Every numbered part comes from another study and shows a few of its results, in no order.

Set 1 — method: aptamer microarray, sandwich; molecule type: DNA with 2'F-ANA; sample: in vitro; concentration: 200 nM; together with: Cy3 exosite-II aptamer, 400 nM; direction: higher = stronger binding; sequence: GGTTGGTGTGGTTGG
Target: Prothrombin, mature alpha-thrombin (F2, Homo sapiens, UniProt P00734)
Setting: whole 15-mer aptamer, many near background
Modification | mean fluorescence intensity [a.u.]
2'F-ANA at 1 2 3 6 7 10 12 13 14 15 | 59.1
2'F-ANA at 3 5 7 10 12 13 | 75.2
2'F-ANA at 3 4 5 6 7 8 12 13 15 | 128
2'F-ANA at 3 4 9 11 13 | 496
2'F-ANA at 1 2 4 5 6 7 9 11 12 14 | 59.2
2'F-ANA at 3 6 8 9 10 11 13 14 15 | 347
2'F-ANA at 2 3 5 14 | 51.7
2'F-ANA at 1 3 4 7 9 15 | 198
2'F-ANA at 2 7 9 10 12 14 15 | 91.3
2'F-ANA at 1 2 3 7 8 9 10 12 14 | 60.2
2'F-ANA at 1 3 5 8 12 13 14 15 | 83.7
2'F-ANA at 1 2 3 5 7 9 13 14 15 | 44.8
2'F-ANA at 3 7 8 9 11 12 14 15 | 704
2'F-ANA at 3 4 5 6 7 9 10 13 15 | 82.5
2'F-ANA at 1 2 4 5 9 10 12 13 15 | 47
2'F-ANA at 5 8 9 11 13 | 60.1
2'F-ANA at 1 3 5 6 9 11 13 14 15 | 65.4
2'F-ANA at 4 7 9 10 11 | 86.1
2'F-ANA at 1 4 5 6 8 15 | 57
2'F-ANA at 1 2 3 7 8 10 15 | 75.3
2'F-ANA at 1 4 5 7 8 13 14 15 | 48.6
2'F-ANA at 4 6 7 8 10 11 13 14 | 58.3
2'F-ANA at 1 2 3 5 6 7 12 14 15 | 65.5
2'F-ANA at 3 8 12 13 15 | 1230
2'F-ANA at 3 8 10 13 | 593

Set 2 — method: RNA Bind-n-Seq; molecule type: RNA; sample: in vitro; concentration: 200 nM; setting: whole 134-nt RNA, ends assumed; together with: 150 mM KCl; baseline: input library; direction: higher = stronger binding
Target: Fragile X messenger ribonucleoprotein 1, C-terminal low-complexity region (Fmr1, Mus musculus, UniProt P35922)
Shared flanks, not repeated: GGGAGUUCUACAGUCCGACGAUC … UGGAAUUCUCGGGUGUCAAGG
Sequence | log2 enrichment
CCUCAAGUCCUGUGCUACACAUCGUAUGUACCGAAUCGGGCGGGGCGGGGCGGAAAGUAUUAUGUUACGCCGUUCGGAUCUGCACUUCCA | 0.527
GCAGGAAGUAAAAACAAAUGGAAAUGCUUCGGAUAGUGGCAGGGGUGGGGGUUGCUAAGGAAAGGGUGGGAUGGGAGUGGGUAUAGAGUU | -0.825
AAGUCCUGUGCUACACAUCGUAUGUACCGAAUCGGGGAGGGGAAAGGGGAAAGGGGAAAGUAUUAUGUUACGCCGUUCGGAUCUGCACUU | 0.679
GUCAAGUGCUUCUGCUCCUGAUGUGGAUGACCCAGAGGCAUUCCCAGCUCUGGCUUAACUGGAUGCCAUAAGACAACCCUGGUUCCUUUG | 0.214
ACCAUGCAGGUGGGCAUCUUUGGGAAGUGGGGCAAGGGGGGGAUAGGGAGGGGGGUAACACUUUGGGAACAGGCGGUCCCAGGUCGUUUC | 0.654
GGUAGCAAGAGCUCCAGAGAGAAGUCGAGGAAGAGAGAGACGGGGUCAGAGAGAGCGCGCGGGCGUGCGAGCAGCGAAAGCGACAGGGGC | 0.394
ACCAUGCAGGUGGGCAUCUUUGGGAAGUGGGGCAAGGGGGGGAUAGGAAGGGGGGUAACACUUUGGGAACAGGUGGUCCCAGGUCGUUUC | 0.68
ACCAUGCAGGUGGGCAUCUUUGGGAAGUGGGGCAAGGGGGGGAUAGGGAGGGGGGUAACACUUUGGGAAAAAGUGGUCCCAGGUCGUUUC | 0.953
UCCUGUGCUACACAUCGUAUGUACCGAAUCGGGCCCCCCGGGGCCCCCCGGCCCCCCGGAAAGUAUUAUGUUACGCCGUUCGGAUCUGCA | -0.237
ACCAUGCAGGUGGGCAUCUUUGGGAAGUGGGGCAAGGGGGGGAUAGGGAGGGGGGUAACACUUUGGGAACAGGUGGAAACAGGUCGUUUC | 0.445
GUCCUGUGCUACACAUCGUAUGUACCGAAUCGGUUUUUGGGUUUUUGGGGUUUUUGGGGAAAGUAUUAUGUUACGCCGUUCGGAUCUGCA | -0.0518
CCUCAAGUCCUGUGCUACACAUCGUAUGUACCGAAUCGGUGGAAAAAGGAGGAAAGUAUUAUGUUACGCCGUUCGGAUCUGCACUUCCAG | 0.261
UGGGAGGUGGAUUUUGUUUAUUUUUUUAGCUCAUUUCCAGGGGAGGGAAUUUUUUUUUAAUAUGUGUCAUGAAUAAAGUUGUUUUUGAAA | 0.267
GUCCUGUGCUACACAUCGUAUGUACCGAAUCGGGGUUUUUGGUUUUUGGGGUUUUUGGGAAAGUAUUAUGUUACGCCGUUCGGAUCUGCA | -0.0141

Set 3 — method: protein binding microarray; molecule type: double-stranded DNA, one strand shown; sample: in vitro; concentration: not given; baseline: not given; direction: higher = stronger binding
Target: Histone acetyltransferase KAT6A, winged helix 1, GST fusion (KAT6A, Homo sapiens, UniProt Q92794, residues 1-85)
Setting: 8-mer, flanks averaged, mean of 2 arrays, mostly near background
Construct (chain): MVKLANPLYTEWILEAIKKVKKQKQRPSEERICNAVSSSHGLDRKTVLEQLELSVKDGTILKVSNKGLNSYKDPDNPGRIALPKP
Sequence | E-score
GTTCTGAA | -0.178
GCGTGCAA | 0.0869
CGAAACCC | 0.0826
CGTTCAGC | 0.0075
GGGCGAAA | -0.0596
ACGATAGG | -0.0935
AAGTCGGG | 0.114
AAATTATT | -0.0997
ATCTACGA | -0.221
AAATACAC | -0.125
CTGCGCTC | 0.189
CGAACAAG | 0.104
ACACGGCC | 0.337
GCCCTCGA | -0.151
GAAGCCCC | 0.0549
CGTCCCGA | 0.265
ATGGAGGC | 0.0459
GGTCATTA | 0.067
CGTGGCTC | 0.123
AGGGCCGA | 0.18
CTTGAACC | -0.0094

Set 4 — method: RNA Bind-n-Seq; molecule type: RNA; sample: in vitro; concentration: 365 nM; baseline: no-protein control; direction: higher = stronger binding
Target: RNA binding protein fox-1 homolog 2, RRM domain, GST-SBP tag (RBFOX2, Homo sapiens, UniProt O43251-10, residues 100-194)
Setting: natural RNA segment, single round, ends assumed
Shared flanks, not repeated: GGGAGUUCUACAGUCCGACGAUC … UGGAAUUCUCGGGUGCCAA
Construct (chain): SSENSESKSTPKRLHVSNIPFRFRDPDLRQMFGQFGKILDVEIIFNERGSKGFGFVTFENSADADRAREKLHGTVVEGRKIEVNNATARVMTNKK
Sequence | RBNS enrichment (R)
UGUCUAAAGUAUGUGAUGUCUUCAUCAUAGUAUGAAGUGUUGAAAAUUAAUAACGAGCCUAGUUUAGGAAAAAGCUGCUUAAAACUGUGGCUCUAAGAGAGUAAUCAUAA | 0.338
AGGGAGGUCACCCCUCCACUUCAGCUUGCCCUGACCUCCGCUCGCAAACCCCGAGCUUCCAAGCCUUUUGCUCCAGCCCUGCGGCUUCCCCAGAAGCCUGGGCUUAGGGU | 0.467
UCCGUCCCCCUGGCCCCUCAGUGUCCAUGUCUUGAGCUUAAUAAAUGUGCAUUUGGUUUUUUCCUCUGUUCUGUCUGUGUGUUCUCAUCUGUGGGGCACGGUGUGGGUAG | 0.593
GUAUGUGUCUUUAUUUGUAUUGGAAAAUACUGUCUUUAAAUUGUUUCUUGUUGACACUCCCCACAAUGGAAAAAUUACCGAAUUAAACCUGUUUUAUGGAUGGCAGCUUG | 1.39
GUUAUAUAUUUGGCAUAAAAUACGGCUUACGUUGCUUAAGAUUCUCAGGGAUAAACUUCCUUUUGCUAAAUGCAUUCUUUCUGCUUUUAGAAAUGUAGACAUAAACACUC | 1.05
UUAACACUAAAAACGGAUCAAAGCUCCCACGCCAGUCCACUAGGGCCCCAGUAGUUGACAGCCUUGCUCCUCUCCCAAGUUCUCCUUCAGAACCUAGUUGCUUUUAUUCU | 0.936
GAGAGUGAAGGAGACGGAGAAACGCGCCCCAUCCCUUCCGCCGCCUCCUUUCCCCCCCGACCCUAUUCAGGUUUUAAGUCAAAAAUGUCGAUAUGUCAUUAUGCACUUUA | 0.349
AGAAAUGCACACCUGUCAGCCCAGGACCAGCUUUGGUGGCUAAAGGGAAUAUUUUAACUCGCAAGGUGAUGUUCUGUACAAAACGUGGUAUAUGUUACCCACAGUCCAUU | 0.287
CUGUAGUUUUGAAGUCAUCCGUUUUUUGAUGACAAAGUACCUGUGGAAAACCAGGGAUAUUUUUUUUUCCUCAACUUCUUCUCUUUACUCCCUACCCCUCUCCUCCCUAA | 1.63
GCCACCGAUCCUAUCCAGCUAGCUCUUCACCAGGCCUUGUAACCAACUCCUUGUCGUCCUAAUCUGCAAACCCAGACCCAGACCCUUUCCGCAGCCGCCUCCUCUUCCUC | 0.517
UUCAUGCCAUCUGUUUUCAACCAACUAUUUUUGAGGAAUUAUCAUGGGAAAAGACCAGGGCUUUUCCCAGGAAUAUCCCAAACUUCGGAAACAAGUUAUUCUCUUCACUC | 0.432
CGGAGGCGGCCUUCUGGGUCCCCACCUCUCCUGGUUCCGCUGCUGCUCUCCCUGCUGAUGAUAAAGUAAUCUCUGGAGUCACACCUGGGCCAUGUGAUUGUUUUAUUUUG | 0.444
